Assay results from different studies.
“And” joins repeats or separate records; there may be more than shown. Numbers after ± are the reported error.
PTPN1: Tyrosine-protein phosphatase non-receptor type 1 (PTPN1, Homo sapiens, UniProt P18031)

Amino acid sequences for entries named in this document (tags omitted). Residues count along the entry.
UniProt P18031, 1-321 limits assumed: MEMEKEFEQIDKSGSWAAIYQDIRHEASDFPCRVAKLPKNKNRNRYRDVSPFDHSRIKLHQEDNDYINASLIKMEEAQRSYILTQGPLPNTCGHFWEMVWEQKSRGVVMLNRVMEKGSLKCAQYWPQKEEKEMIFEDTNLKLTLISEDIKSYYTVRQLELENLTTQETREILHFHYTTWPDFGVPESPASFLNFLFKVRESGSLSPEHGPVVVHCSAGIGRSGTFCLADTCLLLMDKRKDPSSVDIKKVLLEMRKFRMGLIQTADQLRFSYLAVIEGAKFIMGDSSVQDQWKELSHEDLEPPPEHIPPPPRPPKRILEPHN
UniProt P18031, whole entry: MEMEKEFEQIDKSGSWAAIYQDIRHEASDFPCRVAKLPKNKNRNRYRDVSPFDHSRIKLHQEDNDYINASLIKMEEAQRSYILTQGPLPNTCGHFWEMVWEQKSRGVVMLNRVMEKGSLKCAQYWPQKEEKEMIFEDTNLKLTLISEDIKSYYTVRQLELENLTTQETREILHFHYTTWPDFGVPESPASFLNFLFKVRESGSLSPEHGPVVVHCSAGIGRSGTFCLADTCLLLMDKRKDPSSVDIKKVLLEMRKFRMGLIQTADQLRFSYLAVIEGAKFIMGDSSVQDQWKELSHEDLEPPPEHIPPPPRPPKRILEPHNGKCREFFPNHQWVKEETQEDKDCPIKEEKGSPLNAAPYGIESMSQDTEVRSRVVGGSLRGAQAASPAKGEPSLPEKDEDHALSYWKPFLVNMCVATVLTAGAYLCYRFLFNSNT
UniProt P19821, whole entry: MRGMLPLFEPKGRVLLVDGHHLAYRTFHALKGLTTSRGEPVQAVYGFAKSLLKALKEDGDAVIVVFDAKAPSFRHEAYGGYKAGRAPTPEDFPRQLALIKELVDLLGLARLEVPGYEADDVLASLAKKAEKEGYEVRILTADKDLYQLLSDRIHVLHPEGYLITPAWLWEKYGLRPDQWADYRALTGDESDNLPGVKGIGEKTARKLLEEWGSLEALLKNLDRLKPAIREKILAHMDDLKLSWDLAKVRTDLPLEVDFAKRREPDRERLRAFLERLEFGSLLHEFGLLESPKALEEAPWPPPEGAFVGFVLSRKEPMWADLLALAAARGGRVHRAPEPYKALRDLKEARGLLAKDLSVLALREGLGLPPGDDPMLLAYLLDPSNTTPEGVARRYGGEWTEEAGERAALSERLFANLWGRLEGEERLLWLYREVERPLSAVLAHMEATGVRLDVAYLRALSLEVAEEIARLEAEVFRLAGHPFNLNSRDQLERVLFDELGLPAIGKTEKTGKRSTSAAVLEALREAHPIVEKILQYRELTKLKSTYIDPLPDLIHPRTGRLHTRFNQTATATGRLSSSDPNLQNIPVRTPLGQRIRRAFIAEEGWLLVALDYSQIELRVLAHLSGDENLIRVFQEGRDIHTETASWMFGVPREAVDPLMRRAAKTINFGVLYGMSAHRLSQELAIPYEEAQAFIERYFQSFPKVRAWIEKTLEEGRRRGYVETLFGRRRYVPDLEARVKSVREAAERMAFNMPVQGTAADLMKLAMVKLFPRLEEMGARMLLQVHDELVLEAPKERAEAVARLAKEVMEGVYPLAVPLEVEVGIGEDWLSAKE
UniProt O60502, whole entry: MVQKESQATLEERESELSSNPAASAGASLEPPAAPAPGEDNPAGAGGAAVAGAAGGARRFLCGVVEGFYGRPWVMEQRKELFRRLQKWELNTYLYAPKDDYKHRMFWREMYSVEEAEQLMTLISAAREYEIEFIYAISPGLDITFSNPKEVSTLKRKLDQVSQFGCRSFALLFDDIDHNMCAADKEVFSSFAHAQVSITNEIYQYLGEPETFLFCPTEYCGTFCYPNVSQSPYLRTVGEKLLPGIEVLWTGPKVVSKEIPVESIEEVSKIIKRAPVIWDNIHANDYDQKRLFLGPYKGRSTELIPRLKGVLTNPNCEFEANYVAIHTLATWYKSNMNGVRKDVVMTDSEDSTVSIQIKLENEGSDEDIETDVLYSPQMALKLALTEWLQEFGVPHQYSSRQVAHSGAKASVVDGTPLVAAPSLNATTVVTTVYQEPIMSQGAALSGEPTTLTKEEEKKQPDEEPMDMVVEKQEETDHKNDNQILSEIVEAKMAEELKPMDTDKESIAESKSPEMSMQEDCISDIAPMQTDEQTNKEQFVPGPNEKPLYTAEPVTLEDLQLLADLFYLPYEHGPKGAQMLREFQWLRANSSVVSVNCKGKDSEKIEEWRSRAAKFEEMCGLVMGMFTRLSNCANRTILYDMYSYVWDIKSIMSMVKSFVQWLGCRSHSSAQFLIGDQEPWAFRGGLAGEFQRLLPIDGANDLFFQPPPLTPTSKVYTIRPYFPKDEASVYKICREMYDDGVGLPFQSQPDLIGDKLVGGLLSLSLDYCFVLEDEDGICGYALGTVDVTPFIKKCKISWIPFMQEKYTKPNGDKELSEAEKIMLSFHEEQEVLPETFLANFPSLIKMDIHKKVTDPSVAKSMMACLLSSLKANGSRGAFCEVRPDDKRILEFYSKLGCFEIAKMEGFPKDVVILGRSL
UniProt P11245, whole entry: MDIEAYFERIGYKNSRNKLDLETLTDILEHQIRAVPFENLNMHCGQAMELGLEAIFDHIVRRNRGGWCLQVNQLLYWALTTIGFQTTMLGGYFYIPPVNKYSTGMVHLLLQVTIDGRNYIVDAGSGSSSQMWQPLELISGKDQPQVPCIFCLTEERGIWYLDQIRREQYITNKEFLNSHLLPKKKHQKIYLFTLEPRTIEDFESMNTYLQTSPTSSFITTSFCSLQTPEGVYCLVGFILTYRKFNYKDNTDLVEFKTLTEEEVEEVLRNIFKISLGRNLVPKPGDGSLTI
UniProt P12821, 30-1306 limits assumed: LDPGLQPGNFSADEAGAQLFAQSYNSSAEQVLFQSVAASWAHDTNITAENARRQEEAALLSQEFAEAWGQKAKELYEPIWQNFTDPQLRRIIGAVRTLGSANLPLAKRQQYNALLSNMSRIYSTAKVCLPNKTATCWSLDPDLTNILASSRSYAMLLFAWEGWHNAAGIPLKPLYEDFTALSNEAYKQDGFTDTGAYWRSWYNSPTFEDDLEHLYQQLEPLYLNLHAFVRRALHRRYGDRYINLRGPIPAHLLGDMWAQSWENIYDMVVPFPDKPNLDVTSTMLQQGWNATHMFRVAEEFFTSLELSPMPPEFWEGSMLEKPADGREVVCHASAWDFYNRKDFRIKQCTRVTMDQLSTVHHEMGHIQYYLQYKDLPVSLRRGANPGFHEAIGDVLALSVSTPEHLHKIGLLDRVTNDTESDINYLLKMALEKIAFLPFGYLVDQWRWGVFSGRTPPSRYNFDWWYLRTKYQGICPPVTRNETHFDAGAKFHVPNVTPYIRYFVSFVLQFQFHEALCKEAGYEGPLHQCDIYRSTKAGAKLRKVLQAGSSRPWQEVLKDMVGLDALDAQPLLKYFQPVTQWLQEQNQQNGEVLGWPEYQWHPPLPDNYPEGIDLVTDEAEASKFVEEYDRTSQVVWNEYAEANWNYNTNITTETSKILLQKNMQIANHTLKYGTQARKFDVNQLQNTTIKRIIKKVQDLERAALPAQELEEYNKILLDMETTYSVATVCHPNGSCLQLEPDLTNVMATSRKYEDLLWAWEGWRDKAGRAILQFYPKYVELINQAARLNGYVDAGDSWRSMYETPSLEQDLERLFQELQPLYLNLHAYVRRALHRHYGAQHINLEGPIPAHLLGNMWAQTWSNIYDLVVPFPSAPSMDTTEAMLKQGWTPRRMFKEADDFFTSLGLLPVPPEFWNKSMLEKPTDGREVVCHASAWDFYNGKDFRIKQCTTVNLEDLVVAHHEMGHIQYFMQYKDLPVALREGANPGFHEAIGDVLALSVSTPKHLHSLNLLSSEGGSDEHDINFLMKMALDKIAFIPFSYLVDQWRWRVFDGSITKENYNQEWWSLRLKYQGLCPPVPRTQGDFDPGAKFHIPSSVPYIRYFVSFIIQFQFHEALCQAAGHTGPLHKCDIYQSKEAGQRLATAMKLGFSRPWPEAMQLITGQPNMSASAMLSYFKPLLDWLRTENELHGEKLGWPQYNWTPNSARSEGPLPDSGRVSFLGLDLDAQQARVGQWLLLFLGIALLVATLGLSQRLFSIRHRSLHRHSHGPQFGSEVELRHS
UniProt Q66478, 863-1012 limits assumed: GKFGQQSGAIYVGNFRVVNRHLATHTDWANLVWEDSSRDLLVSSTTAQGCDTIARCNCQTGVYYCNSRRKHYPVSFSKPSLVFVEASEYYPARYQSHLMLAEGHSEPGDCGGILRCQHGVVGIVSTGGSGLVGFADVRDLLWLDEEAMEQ
UniProt P30419, whole entry: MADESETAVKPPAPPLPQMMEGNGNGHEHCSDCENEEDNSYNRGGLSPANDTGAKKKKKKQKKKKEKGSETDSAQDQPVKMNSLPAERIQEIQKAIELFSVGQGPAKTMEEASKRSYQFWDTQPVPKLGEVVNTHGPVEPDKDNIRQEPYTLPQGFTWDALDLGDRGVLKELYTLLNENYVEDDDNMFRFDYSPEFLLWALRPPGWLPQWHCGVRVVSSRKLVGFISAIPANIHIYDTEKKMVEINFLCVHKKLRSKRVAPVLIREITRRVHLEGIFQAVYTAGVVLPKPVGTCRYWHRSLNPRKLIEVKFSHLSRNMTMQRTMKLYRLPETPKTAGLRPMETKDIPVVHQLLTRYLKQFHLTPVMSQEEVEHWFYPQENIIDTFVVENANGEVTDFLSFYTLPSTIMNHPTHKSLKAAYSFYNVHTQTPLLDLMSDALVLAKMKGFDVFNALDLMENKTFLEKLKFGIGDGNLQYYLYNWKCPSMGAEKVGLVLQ
UniProt O15379, whole entry: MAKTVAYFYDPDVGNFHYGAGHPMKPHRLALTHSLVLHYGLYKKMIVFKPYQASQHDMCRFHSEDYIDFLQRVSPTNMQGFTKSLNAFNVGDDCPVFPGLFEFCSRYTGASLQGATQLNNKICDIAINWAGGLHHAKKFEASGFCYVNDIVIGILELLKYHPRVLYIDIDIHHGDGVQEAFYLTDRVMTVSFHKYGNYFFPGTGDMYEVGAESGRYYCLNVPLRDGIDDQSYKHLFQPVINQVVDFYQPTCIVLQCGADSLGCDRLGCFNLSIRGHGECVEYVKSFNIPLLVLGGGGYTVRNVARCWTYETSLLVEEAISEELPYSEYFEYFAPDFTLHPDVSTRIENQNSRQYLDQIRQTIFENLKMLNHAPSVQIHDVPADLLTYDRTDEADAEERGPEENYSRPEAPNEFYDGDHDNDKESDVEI
UniProt Q16539, whole entry: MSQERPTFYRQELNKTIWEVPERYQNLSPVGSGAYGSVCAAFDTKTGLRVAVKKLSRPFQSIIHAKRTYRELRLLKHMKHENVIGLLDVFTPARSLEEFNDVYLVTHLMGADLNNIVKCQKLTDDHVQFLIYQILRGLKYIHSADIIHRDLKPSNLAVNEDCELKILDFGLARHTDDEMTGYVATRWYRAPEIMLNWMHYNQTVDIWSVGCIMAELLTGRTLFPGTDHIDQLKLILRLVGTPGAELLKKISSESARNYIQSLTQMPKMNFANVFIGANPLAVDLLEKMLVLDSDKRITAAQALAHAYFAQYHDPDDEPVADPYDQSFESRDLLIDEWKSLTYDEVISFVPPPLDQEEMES
UniProt O60704, 25-377 limits assumed: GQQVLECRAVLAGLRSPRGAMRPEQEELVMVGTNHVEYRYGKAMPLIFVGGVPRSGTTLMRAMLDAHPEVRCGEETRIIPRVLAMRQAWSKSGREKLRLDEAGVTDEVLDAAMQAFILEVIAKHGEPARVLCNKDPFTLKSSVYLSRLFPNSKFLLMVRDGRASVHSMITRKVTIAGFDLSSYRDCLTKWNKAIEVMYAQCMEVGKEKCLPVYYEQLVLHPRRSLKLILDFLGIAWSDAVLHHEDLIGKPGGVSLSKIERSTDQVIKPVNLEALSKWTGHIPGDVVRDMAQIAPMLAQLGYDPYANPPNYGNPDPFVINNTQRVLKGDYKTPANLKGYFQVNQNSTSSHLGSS

SMILES	target or system	assay	system	setting	how to read	quantity	value
CC[C@H](C)[C@H](NC(=O)[C@@H](NC(=O)[C@H](Cc1ccccc1)NC(=O)[C@H](CCC(=O)O)NC(=O)CNC(=O)[C@H](Cc1ccc(OP(=O)(O)O)cc1)NC(=O)[C@@H](NC(=O)[C@H](CC(=O)O)NC(=O)[C@H](C)NC(=O)[C@@H](NC(=O)[C@H](CC(=O)O)NC(C)=O)[C@@H](C)O)C(C)C)[C@@H](C)O)C(N)=O	PTPN1	substrate, continuous UV		pH 7.4, multiply phosphorylated peptides apparent		Km	7 ± 1 µM
CC/C=C\C/C=C\CCC/C=C/C=C/C=C\CCCC(=O)O	DNA polymerase I, thermostable (polA, Thermus aquaticus, UniProt P19821)	enzyme activity, inhibitor		Taq polymerase		IC50	> 100 µM
CC(C)C[C@H](NC(=O)[C@H](CC(N)=O)NC(=O)[C@@H](N)CC(=O)O)C(=O)N[C@@H](Cc1ccc(O)cc1)C(=O)N[C@@H](Cc1ccc(OP(=O)(O)O)cc1)C(=O)N[C@@H](Cc1c[nH]c2ccccc12)C(=O)N[C@@H](CC(=O)O)C(N)=O	PTPN1	enzyme activity, substrate		pH 7.4		Km	5.8 ± 0.8 µM
CC(=O)N[C@@H](CC(=O)O)C(=O)N[C@H](C(=O)N[C@@H](C)C(=O)N[C@@H](C)C(=O)N[C@H](C(=O)N[C@@H](Cc1ccc(OP(=O)(O)O)cc1)C(=O)N[C@@H](C)C(=O)N[C@@H](C)C(N)=O)C(C)C)[C@@H](C)O	PTPN1	substrate, continuous UV		pH 7.4, multiply phosphorylated peptides apparent		Km	18 ± 0.14 µM
N#Cc1c(-c2ccc(Cl)cc2Cl)n(-c2nc(-c3ccc(Cl)cc3)c3c(NC(=O)c4ccccc4)nnc-3[nH]2)[nH]c1=O	U-251	SRB		10 µM		cell growth	6.8%
CC(=O)N[C@H]1[C@H](OC[C@H](NC(=O)[C@H](Cc2c[nH]cn2)NC(=O)[C@H](C)NC(=O)[C@@H](NC(C)=O)C(C)C)C(=O)NCC(=O)N[C@@H](C)C(=O)N[C@@H](CCCCN)C(N)=O)O[C@H](CO)[C@@H](O)[C@@H]1O	Protein O-GlcNAcase (OGA, Homo sapiens, UniProt O60502)	substrate		pH 7.5, 37 °C, added: 4MU-GlcNAc 200 µM competition		Km	789 ± 36 µM
CCOC(=O)c1c(-c2ccc(Cl)cc2Cl)n(-c2nc(-c3ccc(Cl)cc3)c3c(NC(=O)c4ccccc4)nnc-3[nH]2)[nH]c1=O	U-251	SRB		10 µM		cell growth	2.68%
CCOC(=O)Oc1ccc2c(c1OC(=O)OCC)C(=O)c1ccccc1C2=O	Arylamine N-acetyltransferase 2 (NAT2, Homo sapiens, UniProt P11245)	enzyme activity, inhibitor	recombinant in yeast lysate	added: 10 µM 4-aminobiphenyl and 100 µM acetyl-CoA		IC50	41.3 ± 12.9 µM
COc1ccc2c(CC(=O)N[C@@H](CCCNC(=N)N)C(=O)N3CCC[C@H]3C(=O)N3CCC[C@H]3C(=O)NCC(=O)N[C@@H](Cc3ccccc3)C(=O)N[C@@H](CO)C(=O)N[C@@H](C)C(=O)N[C@@H](Cc3ccccc3)C(=O)N[C@@H](CCCCNc3ccc([N+](=O)[O-])cc3[N+](=O)[O-])C(=O)O)cc(=O)oc2c1	Angiotensin-converting enzyme (ACE, Homo sapiens, UniProt P12821)	enzyme activity, substrate, fluorogenic	recombinant enzyme			Km	57 ± 0.8 µM
CC[C@H](C)[C@H](NC(=O)[C@H](CCCCN)NC(=O)[C@H](CC(=O)O)NC(=O)[C@H](CCCNC(=N)N)NC(=O)c1ccc(N=Nc2ccc(N(C)C)cc2)cc1)C(=O)N1CCC[C@H]1C(=O)N[C@@H](Cc1ccccc1)C(=O)N[C@@H](CCSC)C(=O)NCC(=O)N[C@@H](Cc1ccc(O)cc1)C(=O)N[C@@H](CCCNC(=N)N)C(=O)NCC(=O)N[C@@H](CCC(N)=O)C(=O)N[C@@H](CC(=O)O)C(=O)N[C@@H](CCC(=O)NCCNc1cccc2c(S(=O)(=O)O)cccc12)C(N)=O	Genome polyprotein, 2A protease (Enterovirus A71, UniProt Q66478)	protease activity, substrate, FRET	enterovirus 71	pH 7.4, 30 °C		Km	15.5 ± 2.48 µM
CC(C)C[C@H](NC(=O)[C@@H](NC(=O)[C@H](CC(C)C)NC(=O)[C@H](CS)NC(=O)CNS(=O)(=O)c1cccc2c(N(C)C)cccc12)C(C)C)C(=O)O	geranylgeranyltransferase type-I (Rattus norvegicus, UniProt P53610+Q04631)	substrate, fluorescence		30 °C, added: GDP 30 µM and GGPP 10 µM		Km	2.1 ± 1.1 µM
CC(=O)N[C@@H](C)C(=O)N[C@@H](C)C(=O)N[C@@H](Cc1ccc(OP(=O)(O)O)cc1)C(=O)N[C@@H](CC(=O)O)C(=O)N[C@@H](CC(=O)O)C(=O)N[C@@H](C)C(=O)N[C@@H](C)C(=O)N[C@@H](C)C(N)=O	PTPN1	substrate		pH 7.4, catalytic domain		Km	6.5 ± 0.1 µM
NCC(=O)N[C@@H](CCC(N)=O)C(=O)N[C@@H](CO)C(=O)N[C@@H](CCC(N)=O)C(=O)N[C@@H](CO)C(=O)NCC(=O)NCC(=O)N[C@@H](Cc1c[nH]cn1)C(=O)O	Glycylpeptide N-tetradecanoyltransferase 1 (NMT1, Homo sapiens, UniProt P30419)	substrate				Km	40 µM
C/C=C/C(=O)NCCCC[C@H](NC(=O)CNC(=O)[C@H](CC(C)C)NC(C)=O)C(=O)Nc1ccc2c(C)cc(=O)oc2c1	Histone deacetylase 3/Nuclear receptor corepressor 2 (HDAC3/NCoR2) (Homo sapiens, UniProt O15379+Q9Y618)	substrate, fluorogenic trypsin-coupled		pH 7.4, 25 °C		Km	< 10 µM
CC(C)C[C@H](NC(=O)[C@H](C)NC(=O)[C@H](CCCNC(=N)N)NC(=O)[C@H](CCCNC(=N)N)NC(=O)[C@H](CCCNC(=N)N)NC(=O)[C@H](C)NC(=O)[C@H](CC(C)C)NC(=O)[C@H](CCCNC(=N)N)NC(=O)[C@H](CO)NC(=O)[C@H](CCCCN)NC(=O)[C@H](CO)NC(=O)Cn1cc(COC(=O)[C@]2(C)C=C(C(=O)OC(C)(C)C)C(=O)CC2)nn1)C(=O)O	Mitogen-activated protein kinase 14 (MAPK14, Homo sapiens, UniProt Q16539)	enzyme activity, inhibitor, D-SENSOR kinase		2.469 µM, unit not given	relative to: untreated	remaining activity	0.0775 and 0.101 and 0.0951
CC[C@H](C)[C@H](NC(=O)[C@H](CC(=O)O)NC(=O)[C@@H]1CCCN1C(=O)[C@H](Cc1ccc(O)cc1)NC(=O)[C@H](Cc1ccc(O)cc1)NC(=O)[C@H](Cc1ccc(O)cc1)NC(=O)[C@H](CC(=O)O)NC(=O)[C@@H](NC(=O)[C@@H](N)C(C)C)[C@@H](C)O)C(=O)O	Protein-tyrosine sulfotransferase 2 (Homo sapiens, UniProt O60704)	substrate, LC-MS initial velocity		pH 7.5, 30 °C, reaction 1, added: saturating PAPS		Km	19.3 µM
C=C(C)C(=O)Nc1ccc(-c2c(-c3ccc(Oc4nccc(C)n4)c(F)c3)c3c(N)ncnc3n2C)cc1	MFE-280	cell growth, CellTiter-Glo		120 h, unit not given	relative to: untreated growth rate, higher = stronger inhibition	area over GR curve	0.498
CC(=O)N[C@@H](CC(=O)O)C(=O)N[C@@H](C)C(=O)N[C@@H](C)C(=O)N[C@@H](CC(=O)O)C(=O)N[C@H](C(=O)N[C@@H](Cc1ccc(OP(=O)(O)O)cc1)C(=O)N[C@@H](C)C(=O)N[C@@H](C)C(N)=O)C(C)C	PTPN1	substrate, continuous UV		pH 7.4, multiply phosphorylated peptides apparent		Km	10 ± 1 µM
CC(=O)N[C@@H](Cc1ccc(O)cc1)C(=O)N[C@@H](CC(=O)O)C(=O)N[C@@H](CCC(=O)O)C(=O)N[C@@H](CC(=O)O)C(=O)N[C@@H](Cc1ccccc1)C(=O)N[C@@H](Cc1ccc(OP(=O)(O)O)cc1)C(=O)N[C@@H](CC(=O)O)C(=O)N[C@@H](Cc1ccc(O)cc1)C(=O)N[C@@H](CCC(=O)O)C(=O)N[C@@H](Cc1ccccc1)C(N)=O	PTPN1	substrate		pH 7.4, catalytic domain		Km	0.38 ± 0.02 µM
CC(=O)N[C@@H](C)C(=O)N[C@@H](Cc1c[nH]c2ccccc12)C(=O)N[C@@H](CO)C(=O)N[C@@H](Cc1ccc(OP(=O)(O)O)cc1)C(=O)N[C@@H](C)C(=O)N[C@@H](CC(=O)O)C(=O)N[C@@H](Cc1ccc(OP(=O)(O)O)cc1)C(=O)N[C@@H](C)C(=O)N[C@@H](C)C(N)=O	SHP-1 catalytic domain (ΔSH2)	phosphatase activity, substrate		pH 7.4		Km	22 ± 5 µM
CC(=O)N[C@@H](C)C(=O)N[C@@H](C)C(=O)N[C@@H](Cc1ccc(OP(=O)(O)O)cc1)C(=O)N[C@@H](C)C(=O)N[C@@H](CC(=O)O)C(=O)N[C@@H](CC(=O)O)C(=O)N[C@@H](C)C(=O)N[C@@H](C)C(N)=O	PTPN1	substrate		pH 7.4, catalytic domain		Km	2.2 ± 0.1 µM
CN1C(=O)CCc2cc(CNC(C)(C)[C@@H](O)c3ccccc3)ccc21			male CD-1 mouse, plasma	subcutaneous, 10 mg/kg		AUC(0-inf)	14200 ng·min/mL/g

Some of these lines once more:
SMILES	target or system	assay	system	setting	how to read	quantity	value
COc1ccc2c(CC(=O)N[C@@H](CCCNC(=N)N)C(=O)N3CCC[C@H]3C(=O)N3CCC[C@H]3C(=O)NCC(=O)N[C@@H](Cc3ccccc3)C(=O)N[C@@H](CO)C(=O)N[C@@H](C)C(=O)N[C@@H](Cc3ccccc3)C(=O)N[C@@H](CCCCNc3ccc([N+](=O)[O-])cc3[N+](=O)[O-])C(=O)O)cc(=O)oc2c1	Angiotensin-converting enzyme (ACE, Homo sapiens, UniProt P12821)	enzyme activity, substrate, fluorogenic	recombinant enzyme			Km	57 ± 0.8 µM
C/C=C/C(=O)NCCCC[C@H](NC(=O)CNC(=O)[C@H](CC(C)C)NC(C)=O)C(=O)Nc1ccc2c(C)cc(=O)oc2c1	Histone deacetylase 3/Nuclear receptor corepressor 2 (HDAC3/NCoR2) (Homo sapiens, UniProt O15379+Q9Y618)	substrate, fluorogenic trypsin-coupled		pH 7.4, 25 °C		Km	< 10 µM
